Assay results collected from several papers.
A part holds a random share of what one study measured. Changes are numbered by the printed parent chain.

Series 1 — technique: protein binding microarray; molecule type: double-stranded DNA, one strand shown; sample: in vitro; tested at: not given; reference: not given; reading: higher = stronger binding; quantity: E-score
Target: Histone acetyltransferase KAT6A, both winged helices, GST fusion (KAT6A, Homo sapiens, UniProt Q92794, residues 1-181)
Setting: 8-mer, flanks averaged, mean of 2 arrays, mostly near background
Target sequence (chain): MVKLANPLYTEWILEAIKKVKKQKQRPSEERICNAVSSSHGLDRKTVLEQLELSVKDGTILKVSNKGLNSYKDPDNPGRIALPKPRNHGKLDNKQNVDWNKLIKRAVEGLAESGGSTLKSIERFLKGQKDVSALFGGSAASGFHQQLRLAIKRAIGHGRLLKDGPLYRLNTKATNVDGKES
AGCGAAAC: 0.146
CCCCGAGA: -0.0448
ACTATCTC: -0.0716
TAGTTTAA: -0.0385
CGTTCAGA: 0.0445
GCCCCCGA: 0.0474
ATAACGGC: 0.276
AACTTTTG: 0.00534
CCGCCCCC: 0.0681
ACGCTGAA: 0.182
CGAAATTA: -0.0492
GGACGACC: 0.0391
GCCACTAA: -0.158
AGACGCCC: 0.187
GAACCCAA: -0.0953
ATAACCAT: -0.0649
CAAACTAG: -0.143
GGCTGAGA: -0.14
AGCCACAG: -0.143
ATGATAAT: -0.0388
AGGAGTGA: -0.19
AAATGAAT: -0.176
CCCTCGGA: 0.0718
TCATCCCA: -0.24
AACGTAAC: -0.0248

Series 2 — technique: DHFR PCA, deep sequencing; sample: yeast; with: (+)-ABA 710 µM; reference: wild-type fitted maximum; reading: higher = stronger binding; quantity: relative binding score
Target: ABI1, truncated, D143A, DHFR fusion (Arabidopsis thaliana)
Setting: methotrexate growth selection, single substitutions
Starting sequence: PYL1, truncated, DHFR fusion (Arabidopsis thaliana); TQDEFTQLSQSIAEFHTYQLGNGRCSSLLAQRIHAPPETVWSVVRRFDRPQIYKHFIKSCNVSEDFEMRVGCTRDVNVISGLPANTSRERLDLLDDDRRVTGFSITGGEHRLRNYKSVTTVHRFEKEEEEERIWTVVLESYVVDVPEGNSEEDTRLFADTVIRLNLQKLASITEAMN
E152V: 95.9%
L82C: 85.4%
E130L: 109%
I172K: 86.2%
R155D: -5.2%
E147N: 102%
D96I: 62.8%
H34C: 97.7%
Y115I: 0.525%
A35K: 62.7%
E67V: 102%
T86G: 99.7%
G148K: 90.4%
R113G: 97.7%
V40S: 4.79%
T17W: 83.6%
L138C: 88.5%
S11M: 97.7%
H55E: 102%
I105N: 74.8%
R46I: 84%
C60L: 76.7%
I162R: 9.72%
V43G: 0.571%
I172P: -9.61%

Series 3 — technique: aptamer microarray, sandwich; molecule type: DNA with 2'F-ANA; sample: in vitro; tested at: 200 nM; with: Cy3 exosite-II aptamer, 400 nM; reading: higher = stronger binding; quantity: mean fluorescence intensity; sequence: GGTTGGTGTGGTTGG
Target: Prothrombin, mature alpha-thrombin (F2, Homo sapiens, UniProt P00734)
Setting: whole 15-mer aptamer, many near background
2'F-ANA at 2 3 4 5 7 8 9 10 11 13 14: 49.8 a.u.
2'F-ANA at 2 3 5 6 7 8 11 12 13: 150 a.u.
2'F-ANA at 1 2 4 8 9 10 12: 127 a.u.
2'F-ANA at 2 3 4 6 7 10 11 13: 191 a.u.
2'F-ANA at 2 3 6 8 9 13 14: 402 a.u.
2'F-ANA at 1 2 3 4 5 6 8 9 11 13 15: 49.5 a.u.
2'F-ANA at 1 6 10 11: 50.6 a.u.
2'F-ANA at 1 2 3 4 5 6 8 9 15: 97.3 a.u.
2'F-ANA at 2 3 4 5 7 9 12 13: 174 a.u.
2'F-ANA at 3 4 5 7 9 10 12 13 14 15: 47.4 a.u.
2'F-ANA at 1 2 5 6 8 9 13 15: 64.3 a.u.
2'F-ANA at 1 4 6 7 8 13: 89.1 a.u.
2'F-ANA at 1 2 3 4 5 6 8 9 10 12 14 15: 53.1 a.u.
2'F-ANA at 3 4 9 14 15: 347 a.u.
2'F-ANA at 1 2 3 4 5 6 7 8 10 11 12 14: 44.1 a.u.
2'F-ANA at 1 2 3 6 9 13 14: 59.3 a.u.
2'F-ANA at 1 2 6 8 11 14 15: 61 a.u.
2'F-ANA at 3 5 6 8 9 10 14 15: 60.2 a.u.
2'F-ANA at 6 7 8 15: 658 a.u.
2'F-ANA at 1 2 3 5 8 9 12: 175 a.u.
2'F-ANA at 2 3 9 11 13 14 15: 344 a.u.
2'F-ANA at 2 3 6 7 8 9 10 12 15: 392 a.u.
2'F-ANA at 3 4 7 10 13 15: 276 a.u.
2'F-ANA at 1 2 3 4 6 7 8 10 11 12: 66.9 a.u.
2'F-ANA at 3 4 6 7 9 11 12 13 14 15: 222 a.u.

Series 4 — target: OGT, full length, His-tagged (human); technique: phage display, sequencing; sample: in vitro; tested at: 1 µg OGT; reference: input library; reading: higher = stronger binding; quantity: fold enrichment; starting sequence: peptide; VAYPNSYMPKYQIST
Setting: single substitutions, 15-mer displayed peptide, unchanged parent 6.14
V1E: 6.52 fold
M8P: 3.35 fold
A2G: 5.18 fold
Y11H: 0.632 fold
Q12T: 0.864 fold
N5P: 0.625 fold
N5Y: 6.26 fold
Y7E: 0.567 fold
V1R: 4.22 fold
Q12L: 1.48 fold
T15L: 11.8 fold
Y3E: 7.01 fold
S14F: 10.3 fold
P9H: 0.983 fold
Q12P: 0.664 fold
V1T: 7.28 fold
Y11V: 2.16 fold
V1N: 7.41 fold

Series 5 — technique: competition protein-binding microarray; molecule type: double-stranded DNA, one strand shown; sample: in vitro; tested at: 2 µM; with: Cbf1 competitor, 0.05 µM; reading: higher = stronger binding; quantity: fluorescence intensity
Target: Phosphate system positive regulatory protein PHO4, full length, GST-tagged (PHO4, Saccharomyces cerevisiae, UniProt P07270, residues 1-312)
Setting: whole 60-bp probe, lowest competitor level
Target sequence (chain): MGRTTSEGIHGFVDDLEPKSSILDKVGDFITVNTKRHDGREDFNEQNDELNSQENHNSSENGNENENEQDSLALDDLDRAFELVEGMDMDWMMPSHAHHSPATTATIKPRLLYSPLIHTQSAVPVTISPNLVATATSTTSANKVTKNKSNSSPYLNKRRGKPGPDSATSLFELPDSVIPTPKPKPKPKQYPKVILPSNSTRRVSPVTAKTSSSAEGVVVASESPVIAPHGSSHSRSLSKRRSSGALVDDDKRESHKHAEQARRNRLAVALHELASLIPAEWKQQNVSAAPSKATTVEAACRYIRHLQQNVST
TGGCGCCATCGCCATCACGATTTCAACCATGTCAATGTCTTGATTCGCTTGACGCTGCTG: 5030 a.u.
ATGGCTACTTTTATCCCCGTGACGAAATCTATCACTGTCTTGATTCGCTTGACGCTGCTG: 7780 a.u.
CGGGGTTAAGTTTGCTACGTGGGTGGCTTGCAGCAGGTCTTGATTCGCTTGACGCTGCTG: 7600 a.u.
CGTCCTAGCGATTGACTCGTGGGTGCCATGAGGAAGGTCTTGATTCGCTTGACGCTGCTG: 12800 a.u.
CGCCTACAACTTTGGCGCGTGAGCCAAGTGTCTTCTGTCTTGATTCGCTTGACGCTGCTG: 6860 a.u.
CGGAATATGTTAGACCATGTGGTACCGTCGTTTTGGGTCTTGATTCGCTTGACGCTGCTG: 11000 a.u.
CAACTTTTACGAATTCTCGTGCAAATTTTCAGCGATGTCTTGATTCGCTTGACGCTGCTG: 6290 a.u.
TGGTAATTCAACCGTCACGGGTGTAGAAAATGGTGAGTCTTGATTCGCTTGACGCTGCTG: 6640 a.u.
TTTGATTGGTAAACACACGTGGTTACATGAATTCTTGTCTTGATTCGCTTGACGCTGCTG: 17900 a.u.
CGTCCTAGTGATTGTCACATTACTTCCATGAGGAAGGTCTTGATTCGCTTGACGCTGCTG: 5080 a.u.
GTATGGCGCGGAAGAAACCGAGAGAGCTGCAAAATTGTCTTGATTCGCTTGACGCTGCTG: 3740 a.u.
CATTCAATTCCGAGTCACGTGGGTAAATGATAATGGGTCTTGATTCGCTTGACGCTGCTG: 18400 a.u.
CTTGCGATTCCTCTCCTCGTGAGAGGAGATACCGTTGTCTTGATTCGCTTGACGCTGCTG: 6540 a.u.
TGCGCAACAACTTGGGGTGTGGGTGTATGTCTAGAAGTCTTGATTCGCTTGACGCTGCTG: 6910 a.u.
TTTCTTGGAATTTTTCACATGTTTGCAGTGAATAAAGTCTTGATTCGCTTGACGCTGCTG: 5890 a.u.
CGGGGTTAAGTTTGTCACGGGACTTGCTTGCAGCAGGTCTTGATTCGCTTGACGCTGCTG: 5590 a.u.
CAGCCTTTAATTTTTCACGTGTGAAATTCGATAATTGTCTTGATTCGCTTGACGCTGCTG: 12300 a.u.
TAAATAGTTTTTATATGTTTTTAGTAAAAGAAGAAAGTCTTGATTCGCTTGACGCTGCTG: 3600 a.u.
TGAAACAATTCGCGTCGCGTGGGACCCGAAAAGGGCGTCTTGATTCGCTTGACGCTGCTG: 9060 a.u.

Series 6 — target: CCNE2, cyclin fold, Cln2 fusion (human); technique: yeast growth competition, sequencing; sample: yeast; setting: strong parent motif; reference: not given; reading: higher = stronger binding; quantity: normalised enrichment score
Starting sequence: RBL2 docking peptide (human); STTRRRLFVENDS
STTRRRLFVEDDS [N11D]: 5.72
STTRRRLFVPNDS [E10P]: 3.07
FTTRRRLFVENDS [S1F]: 4
STTRRRLFGENDS [V9G]: 2.32
STTRRRLFVENCS [D12C]: 3.17
STTRRRLFVCNDS [E10C]: 2.45
HTTRRRLFVENDS [S1H]: 3.86
STIRRRLFVENDS [T3I]: 4.3
SVTRRRLFVENDS [T2V]: 3.45
STTRWRLFVENDS [R5W]: 0.626
STTRRRLFVENDI [S13I]: 4.47
STTRRMLFVENDS [R6M]: 1.59
STTRRRLFHENDS [V9H]: 3.48
STTRRRLSVENDS [F8S]: 0.665
STTRVRLFVENDS [R5V]: -0.23
STTHRRLFVENDS [R4H]: 1.08
SPTRRRLFVENDS [T2P]: 2.74
STTRRRLFVTNDS [E10T]: 2.63
STTRARAFVENDS [R5A L7A]: -0.0514
STTRRRLFVENDN [S13N]: 3.39
PTTRRRLFVENDS [S1P]: 4.52
STTRRRQFVENDS [L7Q]: 0.271

Excerpt of the above (series 1):
TAGTTTAA: -0.0385
AACGTAAC: -0.0248
AGCGAAAC: 0.146
GGACGACC: 0.0391
GCCCCCGA: 0.0474
ATAACCAT: -0.0649
CCCTCGGA: 0.0718
ACTATCTC: -0.0716
AAATGAAT: -0.176
AGACGCCC: 0.187
AACTTTTG: 0.00534
AGCCACAG: -0.143
CCCCGAGA: -0.0448
ACGCTGAA: 0.182
CCGCCCCC: 0.0681
ATGATAAT: -0.0388
AGGAGTGA: -0.19
